Published values gathered from unrelated publications.
Each numbered part is a random draw from the data of one study; scales do not carry over between parts.

Block 1 — technique: protein binding microarray; molecule type: double-stranded DNA, one strand shown; sample: in vitro; concentration: not given; reference: not given; direction: higher = stronger binding
Target: Histone acetyltransferase KAT6A, winged helix 1, GST fusion (KAT6A, Homo sapiens, UniProt Q92794, residues 1-85)
Setting: 8-mer, flanks averaged, mean of 2 arrays, mostly near background
Residues (chain): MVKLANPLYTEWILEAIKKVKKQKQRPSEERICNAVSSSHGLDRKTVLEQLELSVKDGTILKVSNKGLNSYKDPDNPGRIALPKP
| Sequence | E-score |
| --- | --- |
| GCGAAATA | -0.00978 |
| CAAATGAA | -0.213 |
| ACATGGCG | 0.215 |
| ATAGGGCG | 0.018 |
| CCGAGTAA | 0.0249 |
| AAGTACGG | 0.279 |
| ACAAGGTA | -0.084 |
| CCGCCAAC | 0.236 |
| CCAGAGTC | -0.14 |
| CACGGAGA | 0.142 |
| AGTATAGA | -0.109 |
| GTAACTCA | -0.123 |
| AGAGCGAG | 0.0134 |
| AAATCCCC | -0.0576 |
| AACCACGT | -0.111 |
| GCGCATAA | 0.192 |
| AACACGCA | 0.0942 |
| CTACGCAC | 0.0285 |
| CAGTCAAC | -0.148 |
| GCGTGTAA | 0.156 |
| AGCGTCAC | 0.131 |
| GAACTCCA | -0.209 |
| AGACCGAA | -0.0729 |
| CTCCGATC | 0.0942 |
| CTCCGCCC | 0.188 |

Block 2 — technique: RNA Bind-n-Seq; molecule type: RNA; sample: in vitro; concentration: 200 nM; setting: whole 134-nt RNA, ends assumed; together with: 150 mM LiCl; reference: input library; direction: higher = stronger binding; library: 7-deaza-guanosine replaces G
Target: Ras GTPase-activating protein-binding protein 1, full length (G3BP1, Homo sapiens, UniProt Q13283)
Sequence of UniProt Q13283 (whole entry, looked up): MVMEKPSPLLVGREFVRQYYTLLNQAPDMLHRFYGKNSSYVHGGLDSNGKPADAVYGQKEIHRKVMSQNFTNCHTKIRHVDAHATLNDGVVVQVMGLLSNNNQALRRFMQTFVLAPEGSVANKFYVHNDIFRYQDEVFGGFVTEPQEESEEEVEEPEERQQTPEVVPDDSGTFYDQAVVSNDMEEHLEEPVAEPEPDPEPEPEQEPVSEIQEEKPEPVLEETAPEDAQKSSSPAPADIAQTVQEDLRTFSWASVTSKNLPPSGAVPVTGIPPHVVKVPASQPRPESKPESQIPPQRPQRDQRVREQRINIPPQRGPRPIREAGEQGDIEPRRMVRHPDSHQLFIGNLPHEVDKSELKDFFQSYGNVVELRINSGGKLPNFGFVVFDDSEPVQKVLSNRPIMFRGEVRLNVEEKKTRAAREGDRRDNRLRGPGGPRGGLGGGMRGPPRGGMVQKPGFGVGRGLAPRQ
Constant ends, left off below: GGGAGUUCUACAGUCCGACGAUC … UGGAAUUCUCGGGUGUCAAGG
| Sequence | log2 enrichment |
| --- | --- |
| GCAGGAAGUAAAAACAAAUGGAAAUGCUUCGGAUAGUGGCAGGGGGGGGGGUUGCUAAGGAAAGGGUGGGAUGGGAGUGGGUAAAGAGUU | -0.489 |
| UGGCCCUGGUGGCAUGCGGGGAGGAAGAGGUGGCCACAUGGAUCGUGGUGGUCCCGGUGGAAUGUUCAGAGGUGGCCGUGGUGGAGACAG | 0.508 |
| ACCAUGCAGGUGGGUAUCUUUGGGAAGUGGGGCAAGGGGGGGAUAGGGAGGGGGGUAACACUUUGGGAACAGGUGGUCCCAGGUCGUUUC | 0.119 |
| AAGUCCUGUGCUACACAUCGUAUGUACCGAAUCGGGGUUUUGGUUUUGGUUUUGGGAAAGUAUUAUGUUACGCCGUUCGGAUCUGCACUU | -1.21 |
| GCAGGAAGUAAAAACAAAUGGAAAUGCUUCGGAUAGUGGCAGGGGUGGGGGUUGCUAAGGAAAGGGUGGGAUGGGAGUGGGUAAAGGGUU | 0.00543 |
| UGGGAGGUGGAUUUUGUUUAUUUUUUUAGCUCAUUUCCAGGGGUGGGAAUUUUUUUUUAAUAUGUGUAAUGAAUAAAGUUGUUUUUGAAA | -0.259 |
| UGGGAGGAGGAUUUUGUUUAUUUUUUUAGCUCAUUUCCAGGGGUGGGAAUUUUUUUUUAAUAUGUGUCAUGAAUAAAGUUGUUUUUGAAA | -0.114 |
| UUCUGAGAAGGUUGCGCAGCAGCUGUGCCCGGCAGUCUAGAGGCGCAGAAGAGGAAGCCAUCGCCUGGCCCCGGCUCUCUGGACCUUGUC | -1.47 |
| AACUAAUACUCUUAAAUGGUCUUUCAGUAUAGUGGUUCUUACGUAGUUUAACAUAGCUAUAAAUUGAGUUUAACAAUUUAUAAACUCAAG | 0.708 |
| GUCCUGUGCUACACAUCGUAUGUACCGAAUCGGAAAAAAAGGUUUUUGGUUUUUUUGGAAAGUAUUAUGUUACGCCGUUCGGAUCUGCAC | -2.08 |
| ACCAUGCAGGUGGGCAUCUUUGGGAAGUGGGGCAAGGGGGGGAUAGGGAGGGGGGUAACACUUUGGGAACAGGUGGUCCCAGGUCGUUCC | 0.108 |

Block 3 — technique: RNA Bind-n-Seq; molecule type: RNA; sample: in vitro; concentration: 365 nM; reference: no-protein control; direction: higher = stronger binding
Target: RNA binding protein fox-1 homolog 2, RRM domain, GST-SBP tag (RBFOX2, Homo sapiens, UniProt O43251-10, residues 100-194)
Setting: natural RNA segment, single round, ends assumed
Constant ends, left off below: GGGAGUUCUACAGUCCGACGAUC … UGGAAUUCUCGGGUGCCAA
Construct (chain): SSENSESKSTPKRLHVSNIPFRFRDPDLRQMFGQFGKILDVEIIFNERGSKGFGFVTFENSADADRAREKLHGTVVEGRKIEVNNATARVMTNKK
| Sequence | RBNS enrichment (R) |
| --- | --- |
| CGCCCGGCACACAAGGCACGUUUGGCAUUUCUCUUUGAGAGAGUUUAUCAUUGGGAGAAGCCGCAGGGACAGAACUGAACGUCCUGCAGCUUCGGGGCAAGUGAGACAAU | 0.83 |
| UGAUAGUUGGCCUCUGGUCUACAAAGAUUUCAUAACUCCUUGGAAAGCUUCUUAUAAUCAUUCUUAACUUCUUGGUAGCUAGAAAUUUAGAGUAGUUGAAAUCUUUAGGA | 0.552 |
| ACCUCUCCUGAGUAGCUGGGACUACAGGUGCAUGACACCACACCCAGCUAAUUUUUGUAUUUUUAUAGAGAUGGAGUUUUGCCAUGUUGGCCAGCCUGGUCUUGAACUCU | 0.631 |
| AAUGUGGGUUGUAAAUGUUCCCCUAACUUCUGUUUCUUCUGAAGAGAAAAUAAACCUUUUUCCCCCCAAAGUAAGGUGUGGUAUGGGUCUUUUCUUAUCGCCUUCCUCUC | 0.476 |
| CCUACCCCAGAAAUAGGACAAUUCACUUCAUUGACCAAGAUGAUCACAUGGAAGGCGGCACAGAGGCAGCUGUGUGGGCUGCAGAUUUCCUGUGUGGGGUUCAGCGUAGA | 0.426 |
| CGGAUAGCUUACUAAUCUUGGACCUUCUGGCAGCCCAUCCACAGAACCAUCUCUCAUGGUUGUUAGCAAGAUGCCUAACACACUCAAGCAAACUAAGCACUGUCACUUUC | 0.386 |
| UCUUAAGCCUUAUUCUUCAACUAAAAGAUGAGGAUUAAGAGCAAGAAGUUGGGGGGGAUGUGAAAAUAAUUUUAUGAGGUUGUCUAAAAUAAAGAGUAGUUUCUUAUCCU | 0.397 |
| GACUGCCUGCCCACCCUGAGGUCCCCGACUGGCCAGGGCCACUCAGCUGCCCCUGUCCCCACCUCUGGAGAAUCCACCCCCACCAGAUUCCUCCGCGGGAGGUGGCCCUC | 0.312 |
| CAAGCAGGAAAAAAGAAACACCAACAGUUGCCAGUGUUUUUGCUUUUUAGCUUAAAAGCAUAGUGAAGAUGCUUGAGGAAGACUUUGCUACCUGGGGUGUGUAGACAGAC | 0.595 |
| ACAGAACCCUUUUCCUGACUCUCAUGGAAGAUGGUGGAAGGAAAAUAGACUGUCUCAUCAACCCUCCUGUGUCCUCUGAAGCAAUCUCAGUUUUUAUUAACCACCUCUUC | 0.336 |
| AGUUGGCCAGCACUAACUCCACCUCUGUUCUCCUUGAACAGCUUCCCCUCCAGCCCACUGCUUUAGGAUGACACAAUGAAUAACACCUAGUCAUAGAAAUCAGUCUCUCU | 0.268 |
| CUACAGUACUAAGACAAUGUUGAAUAUAUCAUUCGCCUCUAUAACAAUUUAAUGUAUUCAGUUUUGACUGUGCUUCAUAUCAUGUACCUCUCUAGUCAAAGUGGUAUUAC | 0.385 |

Block 4 — technique: RNA Bind-n-Seq; molecule type: RNA; sample: in vitro; concentration: not given; reference: input RNA pool; direction: higher = stronger binding
Target: RING finger protein unkempt homolog, zinc fingers 1-6, GST-SBP tag (UNK, Homo sapiens, UniProt Q9C0B0, residues 30-357)
Sequence of UniProt Q9C0B0 (30-357, looked up): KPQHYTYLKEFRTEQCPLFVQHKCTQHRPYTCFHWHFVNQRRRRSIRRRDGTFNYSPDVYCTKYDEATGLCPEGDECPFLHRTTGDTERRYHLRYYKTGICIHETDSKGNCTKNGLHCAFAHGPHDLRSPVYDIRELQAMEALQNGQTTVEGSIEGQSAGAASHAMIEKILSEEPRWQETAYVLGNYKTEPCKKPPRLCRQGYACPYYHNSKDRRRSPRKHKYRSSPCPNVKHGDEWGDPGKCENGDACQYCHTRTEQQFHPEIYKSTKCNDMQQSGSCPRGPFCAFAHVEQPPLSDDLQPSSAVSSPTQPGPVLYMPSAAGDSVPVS
Setting: RNA with constant flanks, human-mouse chimeric sites, ends assumed
Constant ends, left off below: GGGAGUUCUACAGUCCGACGAUC … CAACAGAGGAUUGAGCAUCA
| Sequence | bound/input enrichment [ratio] |
| --- | --- |
| UCUGGUCACACUCGUGUGUAUGGUGUUUGCUUUGUUGAUACUUCACUGGGCAAGUUUUUCAUCGGCCAGUUUUCGGAUGACCGCCACUGUUCCAGAUUUAGGACGCUAGUGGCUCACUAU | 0.265 |
| AAAGAGUGGAUAGAAUGUGCACAUGGAAUCGGUGGGACCCGGGCGAAAAAGGAGUGCAAGAUAGAGUUCGAUGACUUCGAAGAGUGCUUGCUUCGGUACAAAACGAUGAGGCGAAUGCAU | 0.402 |
| GGUGGGGUGGUCAUUGCCGUUUGAGCUCUGCUGAUUCAUGAGUCGCCUUCAAAACUCUCGCAUAGGGUUGACAAUGUGGGGGGGUGGGGGAUCCAGCUUAUUCUUUUAUUUUCAAGUCCA | 1.69 |
| GUUGCCAGCUUCCGGUUCCGUUGGGCUAGCAAGCUCCAGUGCUACGUUGUCUCUACGCUCUCAAUCCGCCAUCCAACAAACAUGGAUCAGGUAAUGCAGUUUGUGGAGCCCAGCCGGCAG | 0.136 |
| ACCAUUUUCGCGGUUCAGGCUUUGUGUGUAGUUCACUUACGGUAUUAAAUUAUUAUUCUGCUUAGCUUAUAAUAAGGAUAAUUGCAUUUAAAGAGGUGAUCACUGAAUGUUAUUGUUCUU | 9.26 |
| AACUUCGUGCAUCGGUUUCCUUUUGUAGCUGUUUCAAUUGGCUUUGCUGUGAAUAAAGAGAUGGAGUUUGGAAUUGUGUACAGCUGUGUGGAAGAUAAGAUGUACACCGGCAGGAAAGGG | 0.535 |
| GUGCCCUUCUCGCUGCUCCUGCGGGGCAGCUGGGAACCAUUCCGGGACUGGUACCCUGCACACAGCCGCCUCUUCGAUCAAGCUUUCGGGGUGCCCCGGUUGCCCGAGGAGUGGUCGCAG | 0.0635 |
| AACUUCGUGCAUCGGUUUCCCUUUGUAGCUGUUUCAAUUGGCUUCCUUGUGAAUAAAGAGAUGGAGUUUGGAGUUGUGUACAGCUGUGUGGAAGGCAAGAUGUACACCGGCAGGAAAGGG | 0.309 |
| GGCUGCUGGUGACUGUCCUGGAGUGGCUGGAGUUCCCGCCGGAGCGCGGCCAGACUAAUUUUAGAAAAUGCCAAGUAGGAAGUUUGUUGAGGGUGAAGUGGUAAGAGGUCGAUGGCCUGG | 7.39 |
| CGCUGGCCCAAGCUGAUGGACUCUGAUGGCCUCCAUCUCUCAGGCACGUGUGCCUUCUCUUAGUUAUUUCUGGGUUGAUGUUAUGAAUCUCAGUACUGUGGUUUGAAAGCACCAGCUUUG | 1.69 |
| CGCCUGGAUGAGGCUGGUGUCACAGAUGAAGUGCUAGAUUCUGCCAUGCAAGCCUUCCUUCUGGAGGUCAUUGUUAAACAUGGGGAGCCGGCACCUUAUUUAUGUAACAAAGAUCCGUUU | 0.0899 |

Some of these lines once more (block 1):
| Sequence | E-score |
| --- | --- |
| AAATCCCC | -0.0576 |
| AACCACGT | -0.111 |
| GCGCATAA | 0.192 |
| AACACGCA | 0.0942 |
| CTACGCAC | 0.0285 |
